Published values collected from several papers.
Numbered parts are unrelated; each lists some results of a single study.
UniProt P42680, sequence (whole entry, looked up): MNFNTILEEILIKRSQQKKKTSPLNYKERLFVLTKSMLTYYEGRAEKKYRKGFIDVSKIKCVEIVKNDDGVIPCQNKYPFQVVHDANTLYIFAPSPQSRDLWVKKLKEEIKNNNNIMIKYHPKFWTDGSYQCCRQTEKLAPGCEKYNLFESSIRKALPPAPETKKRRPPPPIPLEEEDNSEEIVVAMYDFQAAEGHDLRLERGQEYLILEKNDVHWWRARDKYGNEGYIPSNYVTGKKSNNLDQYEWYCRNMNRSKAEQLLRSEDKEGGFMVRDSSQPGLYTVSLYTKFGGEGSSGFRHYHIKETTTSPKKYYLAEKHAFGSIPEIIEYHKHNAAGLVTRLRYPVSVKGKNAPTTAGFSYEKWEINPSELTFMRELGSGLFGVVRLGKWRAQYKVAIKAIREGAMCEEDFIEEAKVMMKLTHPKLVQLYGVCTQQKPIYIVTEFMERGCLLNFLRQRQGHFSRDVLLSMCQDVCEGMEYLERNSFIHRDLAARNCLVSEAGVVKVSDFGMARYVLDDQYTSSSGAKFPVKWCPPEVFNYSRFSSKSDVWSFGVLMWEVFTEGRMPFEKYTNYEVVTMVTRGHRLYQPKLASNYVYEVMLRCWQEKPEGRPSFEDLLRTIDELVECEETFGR
UniProt Q9H0K1, sequence (whole entry, looked up): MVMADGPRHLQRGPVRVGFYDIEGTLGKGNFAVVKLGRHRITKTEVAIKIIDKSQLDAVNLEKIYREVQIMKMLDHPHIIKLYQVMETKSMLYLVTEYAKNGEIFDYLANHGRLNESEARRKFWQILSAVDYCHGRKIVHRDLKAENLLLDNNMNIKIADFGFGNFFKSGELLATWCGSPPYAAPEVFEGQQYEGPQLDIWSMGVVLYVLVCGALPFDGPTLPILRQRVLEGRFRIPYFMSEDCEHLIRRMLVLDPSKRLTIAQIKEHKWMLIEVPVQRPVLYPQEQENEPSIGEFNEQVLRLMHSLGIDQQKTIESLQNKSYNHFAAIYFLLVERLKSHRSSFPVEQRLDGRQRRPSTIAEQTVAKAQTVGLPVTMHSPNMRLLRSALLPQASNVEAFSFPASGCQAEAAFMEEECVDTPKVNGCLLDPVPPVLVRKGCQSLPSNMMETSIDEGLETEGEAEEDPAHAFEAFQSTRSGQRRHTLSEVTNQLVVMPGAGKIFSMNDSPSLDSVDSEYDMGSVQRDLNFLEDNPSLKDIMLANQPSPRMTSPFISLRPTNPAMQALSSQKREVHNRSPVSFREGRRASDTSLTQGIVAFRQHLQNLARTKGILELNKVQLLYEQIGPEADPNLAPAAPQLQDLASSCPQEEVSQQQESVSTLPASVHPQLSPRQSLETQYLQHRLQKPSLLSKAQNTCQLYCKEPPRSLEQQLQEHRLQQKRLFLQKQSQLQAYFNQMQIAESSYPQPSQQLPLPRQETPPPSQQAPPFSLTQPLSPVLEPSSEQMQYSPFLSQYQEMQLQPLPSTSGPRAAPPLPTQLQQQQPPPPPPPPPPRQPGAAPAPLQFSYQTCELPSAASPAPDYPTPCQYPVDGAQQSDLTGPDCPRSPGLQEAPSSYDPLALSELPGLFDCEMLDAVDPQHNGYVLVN
UniProt Q9NYL2, sequence (whole entry, looked up): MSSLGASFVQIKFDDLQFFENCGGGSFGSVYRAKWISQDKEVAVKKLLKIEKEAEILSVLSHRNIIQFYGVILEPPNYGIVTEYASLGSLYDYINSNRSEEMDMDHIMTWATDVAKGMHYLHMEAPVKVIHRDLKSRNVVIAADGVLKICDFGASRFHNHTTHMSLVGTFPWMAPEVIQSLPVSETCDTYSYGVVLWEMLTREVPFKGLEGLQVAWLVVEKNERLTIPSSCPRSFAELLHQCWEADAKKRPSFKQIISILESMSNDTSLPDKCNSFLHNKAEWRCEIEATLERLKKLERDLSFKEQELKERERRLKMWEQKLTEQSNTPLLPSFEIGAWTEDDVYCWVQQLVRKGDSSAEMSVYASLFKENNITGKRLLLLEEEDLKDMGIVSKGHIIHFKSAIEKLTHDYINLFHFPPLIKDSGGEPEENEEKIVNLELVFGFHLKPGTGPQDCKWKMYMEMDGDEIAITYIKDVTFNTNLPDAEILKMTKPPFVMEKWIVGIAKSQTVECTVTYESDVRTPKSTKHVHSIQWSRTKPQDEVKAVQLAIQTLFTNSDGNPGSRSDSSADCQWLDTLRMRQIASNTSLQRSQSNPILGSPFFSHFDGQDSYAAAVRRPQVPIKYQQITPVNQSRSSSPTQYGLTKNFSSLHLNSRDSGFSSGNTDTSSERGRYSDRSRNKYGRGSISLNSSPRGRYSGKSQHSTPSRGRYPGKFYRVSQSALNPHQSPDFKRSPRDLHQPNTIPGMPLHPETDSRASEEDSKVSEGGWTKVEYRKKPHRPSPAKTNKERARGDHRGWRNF
UniProt Q96SB4, sequence (whole entry, looked up): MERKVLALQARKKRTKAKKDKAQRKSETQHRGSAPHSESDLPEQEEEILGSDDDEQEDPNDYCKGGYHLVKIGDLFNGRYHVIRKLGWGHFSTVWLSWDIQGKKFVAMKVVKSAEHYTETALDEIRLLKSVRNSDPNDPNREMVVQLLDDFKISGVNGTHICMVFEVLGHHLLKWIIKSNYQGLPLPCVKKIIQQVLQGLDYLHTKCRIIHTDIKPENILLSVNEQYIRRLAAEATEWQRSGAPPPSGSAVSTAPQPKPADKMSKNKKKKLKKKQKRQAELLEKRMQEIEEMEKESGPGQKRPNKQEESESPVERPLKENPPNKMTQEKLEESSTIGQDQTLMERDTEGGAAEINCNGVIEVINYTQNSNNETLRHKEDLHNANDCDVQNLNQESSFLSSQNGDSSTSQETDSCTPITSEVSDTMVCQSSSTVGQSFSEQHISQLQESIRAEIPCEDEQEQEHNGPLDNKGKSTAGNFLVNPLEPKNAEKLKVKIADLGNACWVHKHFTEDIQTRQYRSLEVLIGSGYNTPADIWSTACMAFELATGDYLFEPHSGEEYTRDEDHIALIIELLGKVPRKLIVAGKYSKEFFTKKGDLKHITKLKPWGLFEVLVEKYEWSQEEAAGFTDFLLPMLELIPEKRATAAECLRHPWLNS
UniProt P20794, sequence (whole entry, looked up): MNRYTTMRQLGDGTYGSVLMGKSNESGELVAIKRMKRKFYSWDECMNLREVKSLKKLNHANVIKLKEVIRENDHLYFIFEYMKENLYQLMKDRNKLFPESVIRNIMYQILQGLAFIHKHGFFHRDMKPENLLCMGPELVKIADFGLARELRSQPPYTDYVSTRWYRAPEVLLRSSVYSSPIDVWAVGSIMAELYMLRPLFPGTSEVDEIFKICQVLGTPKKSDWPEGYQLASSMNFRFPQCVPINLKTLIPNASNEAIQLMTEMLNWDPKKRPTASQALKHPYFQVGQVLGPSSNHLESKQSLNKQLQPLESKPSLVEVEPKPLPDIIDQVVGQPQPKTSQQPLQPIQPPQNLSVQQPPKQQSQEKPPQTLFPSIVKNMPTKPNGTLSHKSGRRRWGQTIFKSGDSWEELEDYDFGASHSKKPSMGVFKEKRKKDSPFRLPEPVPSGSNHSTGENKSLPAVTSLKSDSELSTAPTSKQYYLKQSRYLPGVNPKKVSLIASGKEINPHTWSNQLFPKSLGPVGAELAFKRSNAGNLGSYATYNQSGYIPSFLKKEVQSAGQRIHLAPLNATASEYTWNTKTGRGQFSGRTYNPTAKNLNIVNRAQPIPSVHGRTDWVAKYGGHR
UniProt Q9NQU5, sequence (whole entry, looked up): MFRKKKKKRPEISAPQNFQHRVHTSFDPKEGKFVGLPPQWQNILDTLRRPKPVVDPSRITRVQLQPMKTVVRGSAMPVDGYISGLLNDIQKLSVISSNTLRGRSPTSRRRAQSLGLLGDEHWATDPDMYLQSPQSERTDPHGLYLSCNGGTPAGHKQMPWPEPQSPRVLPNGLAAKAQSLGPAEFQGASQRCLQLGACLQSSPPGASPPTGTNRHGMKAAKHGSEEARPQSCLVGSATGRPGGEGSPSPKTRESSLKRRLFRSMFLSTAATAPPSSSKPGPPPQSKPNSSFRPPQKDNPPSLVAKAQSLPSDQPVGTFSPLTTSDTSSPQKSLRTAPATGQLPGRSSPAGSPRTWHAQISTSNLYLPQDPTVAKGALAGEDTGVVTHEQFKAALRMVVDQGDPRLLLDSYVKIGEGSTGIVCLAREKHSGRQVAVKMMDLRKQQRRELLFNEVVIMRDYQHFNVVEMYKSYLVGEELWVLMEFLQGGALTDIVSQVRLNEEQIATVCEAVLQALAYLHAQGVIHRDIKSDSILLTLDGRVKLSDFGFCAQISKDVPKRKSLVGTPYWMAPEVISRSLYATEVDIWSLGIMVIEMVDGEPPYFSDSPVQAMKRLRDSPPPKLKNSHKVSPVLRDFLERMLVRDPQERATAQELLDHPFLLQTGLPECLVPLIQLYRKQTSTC

Block 1
Structure (SMILES): C[C@H]1CC[C@H](n2c3cnccc3c3cnc(Nc4ccc5c(n4)CCN(C(=O)CO)C5)nc32)CC1
Tested at: 1 µM
It gave 100% for remaining binding (TEC (Homo sapiens, UniProt P42680); binding, competition with immobilised ligand).
For BMPR1A (Homo sapiens, UniProt P36894); binding, competition with immobilised ligand: remaining binding read 100%.
ABL1 (Homo sapiens, UniProt P00519, F317I) — remaining binding: 92%.
It gave 2% for remaining binding (GAK (Homo sapiens, UniProt O14976); binding, competition with immobilised ligand).
BTK (Homo sapiens, UniProt Q06187); cell-free assay, competition with immobilised ligand — remaining binding: 49%.
It gave 100% for remaining binding (STK35 (Homo sapiens, UniProt Q8TDR2); binding, competition with immobilised ligand).
For RPS6KA4 (Homo sapiens, UniProt O75676); binding, competition with immobilised ligand: remaining binding read 100%.
For MAK (Homo sapiens, UniProt P20794); binding: remaining binding read 52%.
It gave 82% for remaining binding (MAP2K1 (Homo sapiens, UniProt Q02750); binding, competition with immobilised ligand).
It gave 3.4% for remaining binding (MKNK2 (Homo sapiens, UniProt Q9HBH9); binding, competition with immobilised ligand).
MAP3K2 (Homo sapiens, UniProt Q9Y2U5); binding, competition with immobilised ligand — remaining binding: 82%.
It gave 66% for remaining binding (EPHB6 (Homo sapiens, UniProt O15197); cell-free assay, competition with immobilised ligand).
It gave 33% for remaining binding (SIK2 (Homo sapiens, UniProt Q9H0K1); binding, competition with immobilised ligand).
It gave 100% for remaining binding (DCLK3 (Homo sapiens, UniProt Q9C098); binding, competition with immobilised ligand).
The remaining binding was 89% (EPHA6 (Homo sapiens, UniProt Q9UF33); cell-free assay, competition with immobilised ligand).
TIE1 (Homo sapiens, UniProt P35590); cell-free assay, competition with immobilised ligand — remaining binding: 89%.

Block 2
SMILES: Cc1ccc(S(=O)(=O)/C=C/C#N)cc1
Read-out: enzyme activity
Mode: inhibitor
Tested at: 0.5 µM
Baseline: control
PRKCZ (Homo sapiens, UniProt Q05513) — remaining activity: 101%.
For CSNK1D (Homo sapiens, UniProt P48730): remaining activity read 103%.
The remaining activity was 112% (SGK2 (Homo sapiens, UniProt Q9HBY8)).
For MUSK (Homo sapiens, UniProt O15146): remaining activity read 107%.
The remaining activity was 93.5% (IGF1R (Homo sapiens, UniProt P08069)).
EPHA2 (Homo sapiens, UniProt P29317) — remaining activity: 105%.
The remaining activity was 89.2% (Cyclin-dependent kinase 2, with cyclin E (CDK2, Homo sapiens, UniProt P24941)).
The remaining activity was 89.5% (PAK1 (Homo sapiens, UniProt Q13153)).
The remaining activity was 114% (CAMKK1 (Homo sapiens, UniProt Q8N5S9)).
For PRKCQ (Homo sapiens, UniProt Q04759): remaining activity read 100%.
The remaining activity was 107% (PAK6 (Homo sapiens, UniProt Q9NQU5)).
For FLT1 (Homo sapiens, UniProt P17948): remaining activity read 92.8%.
The remaining activity was 144% (TEC (Homo sapiens, UniProt P42680)).
For JAK1 (Homo sapiens, UniProt P23458): remaining activity read 98.2%.
For CAMK1 (Homo sapiens, UniProt Q14012): remaining activity read 98.8%.
For CLK1 (Homo sapiens, UniProt P49759): remaining activity read 107%.
The remaining activity was 103% (CLK2 (Homo sapiens, UniProt P49760)).
The remaining activity was 99.7% (SRPK1 (Homo sapiens, UniProt Q96SB4)).
It gave 106% for remaining activity (SIK2 (Homo sapiens, UniProt Q9H0K1)).
The remaining activity was 99.8% (TYRO3 (Homo sapiens, UniProt Q06418)).
For RPS6KA3 (Homo sapiens, UniProt P51812): remaining activity read 95.9%.
The remaining activity was 94.7% (MAP3K20 (Homo sapiens, UniProt Q9NYL2)).
CSNK1E (Homo sapiens, UniProt P49674) — remaining activity: 107%.

Block 3
Target: Alpha-1B adrenergic receptor (ADRA1B, Homo sapiens, UniProt P35368)
UniProt P35368, sequence (whole entry, looked up): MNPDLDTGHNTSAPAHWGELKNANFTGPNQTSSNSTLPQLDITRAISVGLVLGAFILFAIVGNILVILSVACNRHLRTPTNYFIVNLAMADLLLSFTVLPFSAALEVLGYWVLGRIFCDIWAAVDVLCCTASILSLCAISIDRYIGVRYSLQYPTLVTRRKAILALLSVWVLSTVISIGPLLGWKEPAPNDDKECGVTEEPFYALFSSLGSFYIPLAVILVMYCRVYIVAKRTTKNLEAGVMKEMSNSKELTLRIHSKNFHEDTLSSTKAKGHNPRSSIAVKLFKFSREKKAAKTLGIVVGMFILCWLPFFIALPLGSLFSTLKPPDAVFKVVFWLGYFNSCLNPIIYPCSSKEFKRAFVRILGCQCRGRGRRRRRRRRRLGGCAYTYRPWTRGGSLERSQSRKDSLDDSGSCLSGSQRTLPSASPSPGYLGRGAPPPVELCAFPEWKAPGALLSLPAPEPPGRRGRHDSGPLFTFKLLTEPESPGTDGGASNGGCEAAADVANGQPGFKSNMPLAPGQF
Read-out: ligand displacement
Tested at: 10 µM
With `CC1=C(C#N)C(c2ccc3[nH]nc(C)c3c2)C(C#N)=C(C)N1` the inhibition was 1.79%.
The inhibition of `CN(C)CC#Cc1ccc(OCCCc2sc(N3CCc4cccc(C(=O)Nc5nc6ccccc6s5)c4C3)nc2C(=O)O)c(F)c1` is reported as 0.97%.
The inhibition of `C[C@H](c1ccc(F)cc1)N(Cc1cccc(C(=O)O)c1)C(=O)c1cnc2ccccc2c1` is reported as -0.5%.
`CS(=O)(=O)N1CCCC(NC(=O)[C@H](CCC2CCCCC2)NC(=O)c2ccc(CNC(=O)c3cnc4ccccn34)cc2)C1` (stereo partly shown) gave an inhibition of -15%.
`O=S(=O)(NC1CCC(c2cc(F)ccc2F)(S(=O)(=O)c2ccc(Cl)cc2)CC1)C(F)(F)F` (stereo not shown) has an inhibition of -5.22%.
`Cc1c(NC(=O)c2cc(C(N)=O)nc3cc(F)ccc23)c(C(F)(F)F)nn1Cc1ccc(C#N)cc1` gave an inhibition of -8.82%.
`Nc1cnc(N2CCc3cc(S(=O)(=O)Nc4c(F)cc(Cl)cc4F)cc(N4CCCC4=O)c32)nc1` has an inhibition of 4.68%.
The inhibition of `COc1ccc2cc(OCC3(C(=O)O)CN(C(=O)c4ccc(F)cc4)C3)ccc2c1` is reported as -11.4%.
`COCCOc1nc(-c2ccc(Cl)nc2)nc2c1CN(C(=O)c1ncn3ccccc13)CC2` gave an inhibition of 10.8%.
`C[C@@H](c1cccc(C#N)c1)n1cc(Cl)cc(C(N)=O)c1=N` gave an inhibition of -5.97%.
For `NS(=O)(=O)c1cc(NC(=O)Cc2ccccc2)ccc1Oc1cccc(Cl)c1`, the inhibition was -0.38%.
`COc1cccc(NC(=O)c2nc3scc(CN(C)Cc4ccccc4)c3c(=O)[nH]2)c1` has an inhibition of 12.9%.
With `CN1CCN(c2cnc3c(C4CCN(C(=O)c5ccc(OC(F)(F)F)cc5N)CC4)ncnc3c2)CC1` the inhibition was 16.4%.
`Nc1nc(NCc2ccccc2)nc(-c2cccc(CO)c2)n1` has an inhibition of 5.01%.
`C[C@@H]1CN(c2cc(-c3n[nH]c4ccc(OC5(C)CC5)cc34)ncn2)C[C@H](C)O1` has an inhibition of -12.5%.
With `CN([C@@H]1CCc2c(CC(=O)O)c3ccccc3n2C1)S(=O)(=O)c1ccc(F)cc1` the inhibition was -8.18%.
For `Cc1noc([C@H]2C[C@@H](c3ccc(C(F)(F)F)cc3)CN(C(=O)N3CCS(=O)(=O)C3)C2)n1`, the inhibition was -1.18%.
`CN(C)c1ncnc(-c2ccc3nc(Nc4cc(CN5CCN(C(=O)CC(F)(F)F)CC5)ccn4)[nH]c3c2)c1Cl` has an inhibition of 4.51%.
For `Cn1nc(C(=O)NCc2ccc(C(=O)O)cc2)cc1-c1ccc2[nH]ccc2c1`, the inhibition was -6.1%.
`O=C1NC(c2ccccn2)Sc2ccccc21` (stereo not shown) has an inhibition of -5.82%.
For `O=C(NCCCC1CCCCC1)c1ccc(CNC(=O)c2cnn(-c3ccccc3)c2C(F)(F)F)cc1`, the inhibition was -3.62%.
With `O=C(NS(=O)(=O)c1ccc(NCC2CCOCC2)c([N+](=O)[O-])c1)c1ccc(N2CCN(Cc3ccc(C(F)(F)F)cc3-c3ccc(Cl)cc3)CC2)cc1Oc1cnc2[nH]ccc2c1` the inhibition was 12.3%.
With `CC(=O)N1CCC(c2ccc(C(=O)NC3=NCCN3)cc2C(F)(F)F)CC1` the inhibition was -0.595%.
`COc1cc(-c2cn(C3CCc4c(F)cccc4N(CC(F)(F)F)C3=O)nn2)ccc1-n1cnc(C)c1` (stereo not shown) gave an inhibition of 19.9%.
The inhibition of `CCOc1ccc(S(=O)(=O)Nc2ccc(Cl)cc2C#Cc2cnc(C(=O)O)cc2OC)c2ncccc12` is reported as -9.4%.

Block 4
Cell line: HaCaT
Tested at: 100 µM
Time: 60 h
The viability of `CN(C)CCN(Cc1ccccc1)c1ccccn1` is reported as 141%.
With `CCNC(=O)[C@@H]1CCCN1C(=O)[C@H](CCCNC(=N)N)NC(=O)[C@H](CC(C)C)NC(=O)[C@@H](C)NC(=O)[C@H](Cc1ccc(O)cc1)NC(=O)[C@H](CO)NC(=O)[C@H](Cc1c[nH]c2ccccc12)NC(=O)[C@H](Cc1c[nH]cn1)NC(=O)[C@@H]1CCC(=O)N1` the viability was 143%.
`CC(C)OC(=O)C(C(=O)OC(C)C)=C1SC=CS1` gave a viability of 16.4%.
`CC(=O)c1ccc(O)c(C(=O)O)c1` gave a viability of 116%.
With `Cc1nnc(NS(=O)(=O)c2ccc(N)cc2)s1` the viability was 107%.
With `CCOC(=O)O[C@]1(C(=O)OCCl)CC[C@H]2[C@@H]3CCC4=CC(=O)C=C[C@]4(C)[C@H]3[C@@H](O)C[C@@]21C` the viability was 89.4%.
For `Nc1nc(O)c2ncn(COC(CO)CO)c2n1`, the viability was 135%.
`N=C(N)c1ccc(OCCCCCOc2ccc(C(=N)N)cc2)cc1` has a viability of 18.9%.
`C=CC1=C(C(=O)O)N2C(=O)[C@@H](NC(=O)/C(=N\O)c3csc(N)n3)[C@H]2SC1` gave a viability of 134%.

Excerpt of the above (block 2):
For RPS6KA3 (Homo sapiens, UniProt P51812): remaining activity read 95.9%.
The remaining activity was 89.5% (PAK1 (Homo sapiens, UniProt Q13153)).
CSNK1E (Homo sapiens, UniProt P49674) — remaining activity: 107%.
The remaining activity was 99.7% (SRPK1 (Homo sapiens, UniProt Q96SB4)).
The remaining activity was 99.8% (TYRO3 (Homo sapiens, UniProt Q06418)).
The remaining activity was 89.2% (Cyclin-dependent kinase 2, with cyclin E (CDK2, Homo sapiens, UniProt P24941)).
The remaining activity was 114% (CAMKK1 (Homo sapiens, UniProt Q8N5S9)).
The remaining activity was 93.5% (IGF1R (Homo sapiens, UniProt P08069)).
PRKCZ (Homo sapiens, UniProt Q05513) — remaining activity: 101%.
The remaining activity was 112% (SGK2 (Homo sapiens, UniProt Q9HBY8)).
For JAK1 (Homo sapiens, UniProt P23458): remaining activity read 98.2%.
The remaining activity was 144% (TEC (Homo sapiens, UniProt P42680)).
